Measured values pooled from the literature.
Protocols differ between the studies behind these lines. ± gives the spread as reported. Converted amounts (≈) assume the structure as drawn.

Structure (SMILES)	organism	test	test system	conditions	how to read	quantity	result
Nc1nc(-c2ccccc2)nc2[nH]nc(Nc3c(F)cccc3F)c12	rhinovirus B48	viral cytopathic effect	HeLa			IC50	7760 nM
CCCOC(=O)N1c2cc(CNC)ccc2[C@H](NC(=O)C(=O)Nc2ccc(Cl)c(F)c2)[C@H]1CNC(=N)N	HIV-1	viral infection	TZM-bl, CRF02_AG 263-8 Env pseudovirus			IC80	1580 nM
NCCOCCO.O=C(O)C(Cl)Cl	Solanum nigrum	herbicidal activity		15 mg/mL, 21 days, post-emergence greenhouse		inhibition	0%
Cc1cccc2c1N(C(=O)n1ccnn1)CC2	Arabidopsis thaliana		wild type, seedlings	1 µM, continuous red light, together with: 0.3 µM karrikin KAR2		hypocotyl length	13.7 mm
Cc1ccc(-c2nc(N)c3c(Nc4ccc(F)cc4)n[nH]c3n2)cc1F	rhinovirus B48	viral cytopathic effect	HeLa			IC50	3620 nM
c1ccc(CN2CCOCCOCCN(CCCCCCCCCCCCCCN3CCOCCOCCN(CCCCCCCCCCCCCCN4CCOCCOCCN(Cc5ccccc5)CCOCCOCC4)CCOCCOCC3)CCOCCOCC2)cc1	Klebsiella pneumoniae	ciprofloxacin activity	ATCC BAA-2146	half MIC, together with: ciprofloxacin	baseline: ciprofloxacin alone	fold enhancement	3 fold
COc1ccc(Nc2n[nH]c3nc(-c4ccccc4)nc(N)c23)cc1OC	rhinovirus B48	viral cytopathic effect	HeLa			IC50	2950 nM
CC(=O)O[C@@H]1[C@@H](OC(C)=O)[C@H](Sc2sc(C(=O)c3ccc(C)cc3)c(N)c2-c2nc3ccccc3s2)OC[C@H]1OC(C)=O	herpes simplex virus 1	plaque reduction		non-toxic dose NG, mean over three titres		viral reduction	16.7%
O=C(Nn1c(-c2cccc(Cl)c2)nc2ccccc2c1=O)c1ccccc1	Fasciola hepatica	motility, ex vivo	adult flukes			IC50	2720 ± 210 nM
c1ccc(CN2CCOCCOCCN(CCCCCCCCN3CCOCCOCCN(CCCCCCCCN4CCOCCOCCN(Cc5ccccc5)CCOCCOCC4)CCOCCOCC3)CCOCCOCC2)cc1	Klebsiella pneumoniae		ATCC BAA-2146	2.5 µM, together with: tetracycline		tetracycline MIC	1000 ± 100 µM
Nc1nc(-c2ccccc2)nc2[nH]nc(Nc3ccc(OC(F)(F)F)cc3)c12	rhinovirus B48	viral cytopathic effect	HeLa			IC50	1500 nM
CC[C@H](C)CCCCC(=O)N[C@@H](CCN)C(=O)N[C@H](C(=O)N[C@@H](CCN)C(=O)N[C@H]1CCNC(=O)[C@H]([C@@H](C)O)NC(=O)[C@H](CCN)NC(=O)[C@H](CCN)NC(=O)[C@H](CC(C)C)NC(=O)[C@@H](CC(C)C)NC(=O)[C@H](CCN)NC1=O)[C@@H](C)O	Pseudomonas aeruginosa		PAO1	60 min		bacterial count	0 log CFU
O=C(NCC(O)(Cn1cncn1)c1ccc(F)cc1F)[c-]1cccc1.[Cl-].[Co+3].c1cc[cH-]c1 (racemic)	Candida glabrata	EUCAST				MIC50	100 µM
C=C(NC(=O)c1csc(-c2nc3c(cc2O)-c2nc(cs2)C(=O)NC(C(C)O)C(=O)NC(=C(C)OC)c2nc(cs2)C(=O)NC2c4nc(cs4)C(=O)NC(COC(=O)c4c5c6c(cccc6n4O)COC(=O)C(OC4CC(C)(O)C(N(C)C)C(C)O4)C2OC5)c2nc-3cs2)n1)C(N)=O (stereo not shown)	Streptococcus pneumoniae		-25, immunocompromised mice, lung	8 mg/kg/day thrice daily, 24 h post-dose		lung bacterial load	3.96 log10 CFU/lung
C=C1C(=O)OC2C1CCC(C)(O)C13C=CC(C)(C21)C1(C3)C(=O)OC2C3C(C)C(=O)CC3C(=C)CC(OC(C)=O)C21 (stereo not shown)	Danio rerio			concentration not given, HFD-fed larvae NAFLD model		GSH level	increased
COC1C=COC2(C)Oc3c(C)c(O)c4c(c3C2=O)C2=NC3(CCN(CC(C)C)CC3)NC2=C(NC(=O)C(C)=CC=CC(C)C(O)C(C)C(O)C(C)C(OC(=O)Nc2cccnn2)C1C)C4=O (stereo not shown)	Mycobacteroides abscessus		clinical isolates	90% isolates inhibited		MIC90	400 µM (≈ 370 µg/mL)
c1ccc(CN2CCOCCOCCN(CCCCCCCCCCN3CCOCCOCCN(CCCCCCCCCCN4CCOCCOCCN(Cc5ccccc5)CCOCCOCC4)CCOCCOCC3)CCOCCOCC2)cc1	Klebsiella pneumoniae		ATCC BAA-2146	half MIC, together with: tetracycline		tetracycline MIC	125 ± 25 µM
CN(Cc1ccc(C2(C(F)(F)F)CCC2)cc1)Cc1cccc2ccccc12	Trichophyton mentagrophytes	microbial growth, disc diffusion	ATCC18748	0.002 µg/mL, 72 h		inhibition zone	0 mm
CC1(F)CN(C(=O)Cn2c(=O)c(C(=O)NCc3ccc(Cl)cc3)cc3nc(N4CCN(CCN)C4=O)cnc32)C1	Human betaherpesvirus 5	viral replication, inhibitor	AD169			EC50	285 nM
C=C[C@]1(C)C[C@@H](OC(=O)CSc2ccc(NC(=O)c3ccco3)cc2)[C@]2(C)[C@H](C)CC[C@]3(CCC(=O)[C@H]32)[C@@H](C)[C@@H]1O	Mycoplasma gallisepticum	PK/PD fit	infected chickens			maximum antibacterial effect	4.29 log10 CFU/mL
CCCCCCCCCC(=O)N[C@@H](Cc1c[nH]c2ccccc12)C(=O)N[C@H](CC(N)=O)C(=O)N[C@@H](CC(=O)O)C(=O)N[C@@H]1C(=O)NCC(=O)N[C@@H](CCCNC(=O)OC2/C=C/CCCCC2)C(=O)N[C@@H](CC(=O)O)C(=O)N[C@H](C)C(=O)N[C@@H](CC(=O)O)C(=O)NCC(=O)N[C@H](CO)C(=O)N[C@@H]([C@H](C)CC(=O)O)C(=O)N[C@@H](CC(=O)c2ccccc2N)C(=O)O[C@@H]1C (stereo partly shown)	Staphylococcus aureus	planktonic bacterial growth, isothermal microcalorimetry	MRSA	1.5 µg/mL, 24 h, 37 °C		peak heat flow	0 µW
Cc1ccc(Nc2n[nH]c3nc(-c4ccc(F)cc4)nc(N)c23)cc1	rhinovirus B48	viral cytopathic effect	HeLa			IC50	8590 nM
Cc1cc(Cl)cc(S(C)=NC#N)c1NC(=O)c1cc(Br)nn1-c1ncccc1Cl (stereo not shown)	Plutella xylostella		Raphanus sativus field	50 ppm, 168 h, 10% wettable powder		larval survival	10.7%
CCOC(=O)c1cc(-c2nc3ccccc3s2)c(=O)n(NS(=O)(=O)c2ccccc2)c1N	herpes simplex virus 1	viral replication, plaque	Vero	non-toxic dose, mean of three titres		plaque reduction	0%
CC1(C)C(NC(=O)C(=NOC2(C(=O)O)CC2)c2csc(N)n2)C(=O)N1OS(=O)(=O)O (stereo not shown)	Enterobacter aerogenes	agar dilution	ATCC 13048, susceptible			MIC	0.125 µg/mL (≈ 0.27 µM)
Cc1ccc(-c2nc(N)c3c(Nc4ccc(F)cc4)n[nH]c3n2)cc1	rhinovirus B48	viral cytopathic effect	HeLa			IC50	1460 nM
CC(CCCOC(=O)CCC[N+](C)(C)C)C1CCC2C3CCC4CC(OC(=O)CCC[N+](C)(C)C)CCC4(C)C3CCC12C (stereo not shown)	Pseudomonas aeruginosa	microbial growth, disc diffusion	ATCC27853	15.6 µg/disc, 24 h		inhibition zone	7 mm
CC(C)(C)NCC(SS(=O)(=O)O)c1ccccc1 (stereo not shown)	Schistosoma mansoni		mice	600 mg/kg single dose, 1248 h, dosed day 7, perfused 52	baseline: vehicle	male worm burden reduction	32%

Some of these lines once more:
Structure (SMILES)	organism	test	test system	conditions	how to read	quantity	result
O=C(NCC(O)(Cn1cncn1)c1ccc(F)cc1F)[c-]1cccc1.[Cl-].[Co+3].c1cc[cH-]c1 (racemic)	Candida glabrata	EUCAST				MIC50	100 µM
C=C(NC(=O)c1csc(-c2nc3c(cc2O)-c2nc(cs2)C(=O)NC(C(C)O)C(=O)NC(=C(C)OC)c2nc(cs2)C(=O)NC2c4nc(cs4)C(=O)NC(COC(=O)c4c5c6c(cccc6n4O)COC(=O)C(OC4CC(C)(O)C(N(C)C)C(C)O4)C2OC5)c2nc-3cs2)n1)C(N)=O (stereo not shown)	Streptococcus pneumoniae		-25, immunocompromised mice, lung	8 mg/kg/day thrice daily, 24 h post-dose		lung bacterial load	3.96 log10 CFU/lung
C=C1C(=O)OC2C1CCC(C)(O)C13C=CC(C)(C21)C1(C3)C(=O)OC2C3C(C)C(=O)CC3C(=C)CC(OC(C)=O)C21 (stereo not shown)	Danio rerio			concentration not given, HFD-fed larvae NAFLD model		GSH level	increased
COC1C=COC2(C)Oc3c(C)c(O)c4c(c3C2=O)C2=NC3(CCN(CC(C)C)CC3)NC2=C(NC(=O)C(C)=CC=CC(C)C(O)C(C)C(O)C(C)C(OC(=O)Nc2cccnn2)C1C)C4=O (stereo not shown)	Mycobacteroides abscessus		clinical isolates	90% isolates inhibited		MIC90	400 µM (≈ 370 µg/mL)
